Published values collected from several papers.
Each line is one published result; not all experiments were run side by side. Several values in a cell are separate wells, animals, samples, runs or records. ± gives the spread as reported. Ends that are not written are not given here. The star is where a group is joined. * marks the point of attachment.
CDK5 with p25: Cyclin-dependent kinase 5, with p25 (CDK5, Homo sapiens, UniProt Q00535)
B1: chain MSEILPYGEDKMGRFGADPEGSDLSFSCRLQDTNSFFAGNQAKRPPKLGQIGRAKRVVIEDDRIDDVLKGMGEKPPSGV

Molecule | target | test | test system | setting | how to read | quantity | value
KEAFWDRCLSVINVMSSKMLQINA | CDK5 with p25 | phosphotransferase activity, radiometric | peptide | concentration not given, 10% DMSO, with: histone substrate | reference: p5-WT peptide | activity change | 20%
SKF 89626 | Genome polyprotein, NS3 helicase domain (Hepatitis C virus genotype 1b, UniProt Q9WMX2) | NS3 helicase DNA binding, fluorescence, Cy5-dT15 | – | 100 µM | – | inhibition | 5%
KELFWDRCLSVINLMSSKMLQINA | CDK5 with p25 | phosphotransferase activity, radiometric | peptide | concentration not given, 10% DMSO, with: histone substrate | reference: p5-WT peptide | activity change | 57%
Tannic acid | Protein disulfide-isomerase (P4HB, Homo sapiens, UniProt P07237) | insulin reduction, inhibitor | – | 20 µM | – | inhibition | inhibited
RVKALFSVL | HLA class I histocompatibility antigen, B alpha chain (Homo sapiens, UniProt P01889) | iTopia initial binding | peptide | 11 µM, 18 h, 21 °C, HLA-B7 allele | reference: allele positive control peptide | binding | 93%
milbemycin oxime | CDR1 (Candida albicans, UniProt Q5ANA3) | binding, microscale thermophoresis | – | 39.1 nM | – | fraction bound | 24.5%
11-deoxycorticosterone | CYP11B2 (human) | substrate binding, stopped-flow kinetic modelling | – | 4-state branched induced-fit model, with: equimolar adrenodoxin | – | rate constant k-1 | 485 min⁻¹
glutathione | Glyceraldehyde-3-phosphate dehydrogenase (GAPDH, Homo sapiens, UniProt P04406) | spectrophotometric Vmax | – | 10 µM, with: enzyme 10 nM | reference: vehicle | enzyme activity | 96.9% and 99.3% and 103% and 94.7%
KEAFWDKCLSVINLMSSKMLQINA | CDK5 with p25 | phosphotransferase activity, radiometric | peptide | concentration not given, 10% DMSO, with: histone substrate | reference: p5-WT peptide | activity change | 37%
Cbz-WEHD-CH2F (Z-WEHD-FMK; Cbz = O=C(OCc1ccccc1)*; CH2F = FC*) | Caspase-5 (CASP5, Homo sapiens, UniProt P51878) | inhibitor, FRET | – | 100 nM, 30 min preincubation, 25 nM enzyme | – | remaining activity | ~8%
KEVFWDRCLSVINLMSSKMLQINA | CDK5 with p25 | phosphotransferase activity, radiometric | peptide | concentration not given, 10% DMSO, with: histone substrate | reference: p5-WT peptide | activity change | 45%
Ivermectin | GABA-A receptor; alpha-1/beta-2/gamma-2 (Rattus norvegicus, UniProt P18508+P62813+P63138) | agonist, QP-DHM | HEK293 cells | concentration not given | reference: GABA | response amplitude | 58%
For-MMYA (N-formyl; For = O=C*) | Peptide deformylase, mitochondrial (Homo sapiens, UniProt Q9HBH1) | substrate, FDH/NAD+-coupled | – | pH 7.5 | – | Km | 4080 ± 2800 µM
QLATKAARKSAPATG | Procathepsin L (CTSL, Homo sapiens, UniProt P07711) | enzyme activity, inhibitor | peptide | 25 µM, pH 6.0, 25 °C, unlabelled peptide, with: Z-LR-Mca at 0.16 Km | reference: unrelated control peptides | inhibition | 32.1 ± 0.1%
SRKHKWKLSGVERANSVTW | HLA-DR, human | DELFIA | peptide | 10 µM, 48 h, 37 °C | reference: peptide alone | binding | > 2 fold
laminarin | uncharacterized protein (Pelagibacter ubique, UniProt Q4FLC8) | thermal stabilisation, differential scanning fluorimetry screen | Candidatus Pelagibacter ubique | hit threshold ΔTm 2 °C | – | ΔTm | 5.01 °C
EKVPESKVIFDANAPVAVRSKVPDSEF | HLA-DR, human | DELFIA | peptide | 10 µM, 48 h, 37 °C | reference: peptide alone | binding | > 2 fold
BzATP | P2X purinoceptor 7 (P2rx7, Rattus norvegicus, UniProt Q64663, I214A) | ion current, agonist, two-electrode voltage clamp | Xenopus oocytes | 11 µM | – | normalized current | 0.784 and 0.877 and 0.837
RWGLLLALL | human HLA-A*2401 (HLA-A24) | iTopia initial binding | peptide | 11 µM, 18 h, 21 °C | reference: allele positive control peptide | binding | 103%
RDHPRWGASNTALARWLPP | HLA-DR, human | DELFIA | peptide | 10 µM, 48 h, 37 °C | reference: peptide alone | binding | > 2 fold
β-lactose | Frizzled-8 (Xenopus laevis, UniProt Q91719) | binding, biolayer interferometry | – | 25 °C, with: immobilized biotinylated carbohydrate | – | association rate constant | 18300 M⁻¹ s⁻¹
B1 | Calcium/calmodulin-dependent protein kinase type II subunit alpha (CAMK2A, Homo sapiens, UniProt Q9UQM7, D135N/W214A) | binding, ITC | kinase domain D135N/W214A | – | – | −TΔS | -1.5 kcal/mol and -1.64 kcal/mol
KEAFWDRCLSVINLMSTKMLQINA | CDK5 with p25 | phosphotransferase activity, radiometric | peptide | concentration not given, 10% DMSO, with: histone substrate | reference: p5-WT peptide | activity change | 61%
KQWLVWLFL | TCR | SPR | peptide | 25 °C | reference: wild-type peptide | ΔΔG° | -1.8 kcal/mol
KEAFWDRCLSVANLMSSKMLQINA | CDK5 with p25 | phosphotransferase activity, radiometric | peptide | concentration not given, 10% DMSO, with: histone substrate | reference: p5-WT peptide | activity change | 54%
alkynyl-geranylgeranyl pyrophosphate | geranylgeranyltransferase type-I (Rattus norvegicus, UniProt P53610+Q04631) | substrate, fluorescence anisotropy | – | isoprenoid Km, with: FAM-RhoA peptide | – | Km | 0.026 µM
KEAFWDRCLSVINLMSSKMLQINV | CDK5 with p25 | phosphotransferase activity, radiometric | peptide | concentration not given, 10% DMSO, with: histone substrate | reference: p5-WT peptide | activity change | -25%
SFFYVTETTF | human HLA-A*2401 (HLA-A24) | iTopia initial binding | peptide | 11 µM, 18 h, 21 °C | reference: allele positive control peptide | binding | 107%
KEAFWDRCLSVINLMSAKMLQINA | CDK5 with p25 | phosphotransferase activity, radiometric | peptide | concentration not given, 10% DMSO, with: histone substrate | reference: p5-WT peptide | activity change | 61%
NTVKELKNYIQELEERNAELKNLKEHLKFAKAELEFELAAHKFE | Cyclic AMP-dependent transcription factor ATF-7 (ATF7, Homo sapiens, UniProt P17544) | heterodimer thermal denaturation, CD | peptide, 1 M GuHCl | 4 µM total peptide, pH 7.4 | – | Tm | 41 °C

Excerpt of the above:
Molecule | target | test | test system | setting | how to read | quantity | value
KEAFWDKCLSVINLMSSKMLQINA | CDK5 with p25 | phosphotransferase activity, radiometric | peptide | concentration not given, 10% DMSO, with: histone substrate | reference: p5-WT peptide | activity change | 37%
KEAFWDRCLSVINLMSTKMLQINA | CDK5 with p25 | phosphotransferase activity, radiometric | peptide | concentration not given, 10% DMSO, with: histone substrate | reference: p5-WT peptide | activity change | 61%
glutathione | Glyceraldehyde-3-phosphate dehydrogenase (GAPDH, Homo sapiens, UniProt P04406) | spectrophotometric Vmax | – | 10 µM, with: enzyme 10 nM | reference: vehicle | enzyme activity | 96.9% and 99.3% and 103% and 94.7%
B1 | Calcium/calmodulin-dependent protein kinase type II subunit alpha (CAMK2A, Homo sapiens, UniProt Q9UQM7, D135N/W214A) | binding, ITC | kinase domain D135N/W214A | – | – | −TΔS | -1.5 kcal/mol and -1.64 kcal/mol
RVKALFSVL | HLA class I histocompatibility antigen, B alpha chain (Homo sapiens, UniProt P01889) | iTopia initial binding | peptide | 11 µM, 18 h, 21 °C, HLA-B7 allele | reference: allele positive control peptide | binding | 93%
